Measurements from different studies.
Parts stem from different laboratories: compare values within a part only.

Block 1 — technique: protein binding microarray; molecule type: double-stranded DNA, one strand shown; sample: in vitro; concentration: not given; relative to: not given; direction: higher = stronger binding
Target: Histone acetyltransferase KAT6A, both winged helices, GST fusion (KAT6A, Homo sapiens, UniProt Q92794, residues 1-181)
Notes: 8-mer, flanks averaged, mean of 2 arrays, mostly near background
Construct (chain): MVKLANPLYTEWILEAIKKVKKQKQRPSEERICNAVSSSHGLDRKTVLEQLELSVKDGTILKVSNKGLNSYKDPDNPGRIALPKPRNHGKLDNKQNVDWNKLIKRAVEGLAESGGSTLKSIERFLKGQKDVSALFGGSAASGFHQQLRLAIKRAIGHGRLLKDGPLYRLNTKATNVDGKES
With `ACGAGGAA` the E-score was -0.0871.
`ACAAGAGG` gave an E-score of -0.0897.
The E-score of `GAACATAC` is reported as -0.174.
The E-score of `ATGCTAGA` is reported as -0.171.
`AGAATGCT` has an E-score of -0.193.
For `CGTAGACG`, the E-score was 0.136.
The E-score of `CCGGACCG` is reported as 0.127.
`GCATGGCA` gave an E-score of -0.0126.
With `ACCGTTCG` the E-score was 0.0368.
With `CGAATGAC` the E-score was -0.0206.
`GCTCTAAA` gave an E-score of -0.0268.
`GGCTCGTA` has an E-score of 0.00263.
For `AGATAGCC`, the E-score was -0.108.
For `ACTCCTGA`, the E-score was -0.14.
`CGCCAACA` gave an E-score of 0.157.
`CCCTTGCG` has an E-score of 0.0223.
For `ATAAAGAT`, the E-score was -0.0781.
`AGGTCACT` gave an E-score of -0.178.
`ACAATTCT` gave an E-score of -0.108.

Block 2 — technique: RNA Bind-n-Seq; molecule type: RNA; sample: in vitro; concentration: 200 nM; notes: whole 134-nt RNA, ends assumed; together with: 150 mM LiCl; relative to: input library; direction: higher = stronger binding; library: 7-deaza-guanosine replaces G
Target: Fragile X messenger ribonucleoprotein 1, C-terminal low-complexity region (Fmr1, Mus musculus, UniProt P35922)
With `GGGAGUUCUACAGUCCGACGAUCGGUGCGGCUCUAUGAGUGGACAACAGAGAAGGAGCUGCGCACUGAGUGCAACCACUACAACAACAUCAUGGCCCUCUACCUGAAGACCAAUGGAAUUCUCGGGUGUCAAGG` the log2 enrichment was -0.448.
`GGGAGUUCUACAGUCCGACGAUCGCAGGAAGUAAAAACAAAUGGAAAUGCUUCGGAUAGUGGCAGGGGUGGGGGUUGCUAAGGAAAGGGUGGGAUGGGAGUGCGUAAAGAGUUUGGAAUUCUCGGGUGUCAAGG` has a log2 enrichment of 1.65.
The log2 enrichment of `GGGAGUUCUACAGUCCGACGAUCCCUCAAGUCCUGUGCUACACAUCGUAUGUACCGAAUCGGGGAGGGGAGGAGGGAAAGUAUUAUGUUACGCCGUUCGGAUCUGCACUUCCAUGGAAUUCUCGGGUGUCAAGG` is reported as -0.483.
The log2 enrichment of `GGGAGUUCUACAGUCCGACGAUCGCAGGAAGUAAAAACAAAUGGAAGUGCUUCGGAUAGUGGCAGGGGUGGGGGUUGCUAAGGAAAGGGUGGGAUGGGAGUGGGUAAAGAGUUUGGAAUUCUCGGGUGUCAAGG` is reported as 1.6.
`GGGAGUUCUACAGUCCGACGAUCGCAGGAAGUAAAAACAAAUGGAAAUGCUUCGGAUAGUGGCAGGGGUGGGGGUUGCUAAGGAAAGGGUGGGAUGGGAGCGGGUAAAGAGUUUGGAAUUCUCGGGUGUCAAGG` has a log2 enrichment of 1.47.
For `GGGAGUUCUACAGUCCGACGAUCAGUCCUGUGCUACACAUCGUAUGUACCGAAUCGGGAAAAAAAGGGAAAAAGGGUGGGAAAGUAUUAUGUUACGCCGUUCGGAUCUGCACUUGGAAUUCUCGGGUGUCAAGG`, the log2 enrichment was -1.4.
With `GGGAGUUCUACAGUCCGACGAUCCCUGUGCUACACAUCGUAUGUACCGAAUCGGAAAAAAAGGGAAAAAAAGGGAAAAAAAGGAAAGUAUUAUGUUACGCCGUUCGGAUCUGCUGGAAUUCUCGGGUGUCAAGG` the log2 enrichment was -0.597.
`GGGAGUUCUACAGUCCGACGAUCCCUCAAGUCCUGUGCUACACAUCGUAUGUACCGAAUCGGUGGGGUGGGGUGGAAAGUAUUAUGUUACGCCGUUCGGAUCUGCACUUCCAGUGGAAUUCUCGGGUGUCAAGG` has a log2 enrichment of -0.859.
The log2 enrichment of `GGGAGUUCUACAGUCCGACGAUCCAAGUCCUGUGCUACACAUCGUAUGUACCGAAUCGGUUUGGUUUUUGGUUUUUGGAAAGUAUUAUGUUACGCCGUUCGGAUCUGCACUUCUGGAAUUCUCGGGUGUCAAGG` is reported as -1.42.
The log2 enrichment of `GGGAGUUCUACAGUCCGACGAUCUGGCCCUGGUGGCAUGCGGGGAGGAAGAGGUGUCCUCAUGGAUCGUGGUGGUCCCGGUGGAAUGUUCAGAGGUGGCCGUGGUGGAGACAGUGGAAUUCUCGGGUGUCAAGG` is reported as 0.179.
`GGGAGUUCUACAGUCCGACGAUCCACAGACAACACGCACCCACACAGACACAGAGGGAAGGAAAUGGGAUGGGGACAGGGUGCACAGCAGGGCGGGGUAGGACCCCAGCCCCUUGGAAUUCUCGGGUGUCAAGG` has a log2 enrichment of -0.841.

Block 3 — technique: RNA Bind-n-Seq; molecule type: RNA; sample: in vitro; concentration: not given; relative to: input RNA pool; direction: higher = stronger binding
Target: RING finger protein unkempt homolog, zinc fingers 1-6, GST-SBP tag (UNK, Homo sapiens, UniProt Q9C0B0, residues 30-357)
Chain of UniProt Q9C0B0 (30-357, looked up): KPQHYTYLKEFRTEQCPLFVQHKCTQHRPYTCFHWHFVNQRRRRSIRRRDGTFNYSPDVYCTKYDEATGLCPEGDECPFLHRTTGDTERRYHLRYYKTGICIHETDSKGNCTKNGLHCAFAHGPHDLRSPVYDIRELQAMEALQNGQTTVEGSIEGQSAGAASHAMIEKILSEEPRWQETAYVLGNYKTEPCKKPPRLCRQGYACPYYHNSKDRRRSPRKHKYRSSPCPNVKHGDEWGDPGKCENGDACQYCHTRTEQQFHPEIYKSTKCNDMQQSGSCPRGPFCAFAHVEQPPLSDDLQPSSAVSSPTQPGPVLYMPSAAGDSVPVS
Notes: RNA with constant flanks, human-mouse chimeric sites, ends assumed
With `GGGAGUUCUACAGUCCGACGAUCAAACAUCUGUCUUUAAGCAUUCCAAGCGAGAAUGCUGGGGUGAUCAUUGUUGCCCAUGUGCCUUCUGACUGAGCUUUAAUGCUGUUCCAUGUUACAUUGAUGUUCUUCUCCAGAAUUGUUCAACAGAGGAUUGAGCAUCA` the bound/input enrichment was 0.154 ratio.
`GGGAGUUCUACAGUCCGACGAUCUCUGGUCACACUCGUGUAUAUGGUGUGUGCUUUGUGGACACUUCACUGGGAAAGUUUUUCAUCGGCCAGUUUUCGGAUGACCGCCACUGUUCCAGAUUUAGGACGCUAGUGGCUCACUAUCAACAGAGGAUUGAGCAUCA` gave a bound/input enrichment of 0.234 ratio.
For `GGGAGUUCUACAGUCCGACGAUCUGGCGCCUGCGCUCCCCACUCGUGUUUUUAAGUGUAUUUUUAUAAGACAUGUGUAUUUACAAUUGAGCUUUUGUUACAUAAUGCUGAAAUGCUACUGGAGAUUAUGAAAAAAUGUUAAAUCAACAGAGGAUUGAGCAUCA`, the bound/input enrichment was 0.198 ratio.
For `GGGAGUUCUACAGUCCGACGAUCUCCCAAAUCCAGCAGCUCCUUGAAAUAUUGAGACAAACACUCCACACACAGGGAAGGCGAUAACAUUGUACAUUGGUUUACAUUUUUUCCCCCUGUGGAUUUUUCUAUCCUAGUGCUUGCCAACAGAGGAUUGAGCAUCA`, the bound/input enrichment was 0.302 ratio.
`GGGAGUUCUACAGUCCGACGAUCCCAAUUGUGGAGCAGUACUUGAAGACAAAAAAGAACUCUAAUAAUUUAAUCAUCAAGUACAUUAGCUGCCGGCUGGUGACACUCAUCAUUAUACUGUUAGCGUGUAUCUACCUGGGCUAUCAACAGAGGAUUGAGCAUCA` has a bound/input enrichment of 0.239 ratio.
With `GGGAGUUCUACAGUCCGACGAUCGGCCUGGGACCGUCCUGGGCUAGUACAAAUAGCGGCAGUGGAGGCUCGAGAGGAAAGUUUGUUAGUGAGGCAGUGGUUAGAGGCCGUCAUGUACGGUCCUUUACUCGUAAAAAUCCUUCUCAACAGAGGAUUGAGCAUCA` the bound/input enrichment was 0.4 ratio.
With `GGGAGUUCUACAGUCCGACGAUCGGAAGUACAAUGAUGGAGAUUGAUGGUGACAAAGGCAAGCAGGGCGGUCCCACCUACUACAUAGAUACCAAUGCCCUCCGCGUGCCCAGGGAGAACAUGGAGGCCAUCUCACCACUCAAGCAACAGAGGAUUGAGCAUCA` the bound/input enrichment was 0.268 ratio.
`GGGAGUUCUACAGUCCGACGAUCAAUUUCCUGUCAUACUUUUUAGACAUUCACAUCAGACGCCUUACUACCCUGGCCACAUUCUAGGUUUGAAUUAUUUCUCAGCUAUGGAUAUGAUCAAAUGAGAACACUGCUUAACUAAUGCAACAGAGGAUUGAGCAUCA` has a bound/input enrichment of 0.637 ratio.
With `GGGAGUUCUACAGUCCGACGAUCUUACCCGAGAACGAGGAUGAGCUGGAGAGCACCAAUAGACGCUAUACCAAGAGGGACUGCAGCACUUUCCUCAGAACUAGUGAGACGGGCAUCGUGGACCAGGUCAUGGUCACUCUCAACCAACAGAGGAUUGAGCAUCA` the bound/input enrichment was 2.2 ratio.
The bound/input enrichment of `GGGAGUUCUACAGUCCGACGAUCUAAGUCCUGUGCCAGCACUUCGCUCAUUAUAUUUUAAAUUCUGGACCAAUUGUGUUUGUUUCCUGAUUAUUGUAUCCAAUACUUUGCCUAGUAUGUAACUCACUCUUACUGAUAAUAAAACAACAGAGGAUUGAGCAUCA` is reported as 4.19 ratio.
`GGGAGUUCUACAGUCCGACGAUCAAAGAGUGGAUAGAGUGUGCACAUGGAAUCGGUGGGACCCGGGCGAAAAAGGAGUGCAAGAUAGAGUUCGAUGACUUCGAAGAGUGCUUGCUUCGGUAGAAAACGAUGAGGCGAAUGCAUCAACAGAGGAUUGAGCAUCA` has a bound/input enrichment of 0.6 ratio.

Block 4 — technique: protein-binding microarray; molecule type: double-stranded DNA, one strand shown; sample: in vitro; concentration: 2540 nM top; notes: 60-bp whole probe; together with: salmon DNA 0.4 mg/ml; relative to: random background probes; direction: higher = stronger binding; constant ends, left off below: GCCTAGCAC … GTCTTGATTCGCTTGACGCTGCTG
Target: Interferon regulatory factor 3, full length, phosphomimetic (IRF3, Homo sapiens, UniProt Q14653, residues 1-427, S386D/S396D/S398D/S402D/T404D/S405D)
Chain of UniProt Q14653 (whole entry, unmodified, looked up): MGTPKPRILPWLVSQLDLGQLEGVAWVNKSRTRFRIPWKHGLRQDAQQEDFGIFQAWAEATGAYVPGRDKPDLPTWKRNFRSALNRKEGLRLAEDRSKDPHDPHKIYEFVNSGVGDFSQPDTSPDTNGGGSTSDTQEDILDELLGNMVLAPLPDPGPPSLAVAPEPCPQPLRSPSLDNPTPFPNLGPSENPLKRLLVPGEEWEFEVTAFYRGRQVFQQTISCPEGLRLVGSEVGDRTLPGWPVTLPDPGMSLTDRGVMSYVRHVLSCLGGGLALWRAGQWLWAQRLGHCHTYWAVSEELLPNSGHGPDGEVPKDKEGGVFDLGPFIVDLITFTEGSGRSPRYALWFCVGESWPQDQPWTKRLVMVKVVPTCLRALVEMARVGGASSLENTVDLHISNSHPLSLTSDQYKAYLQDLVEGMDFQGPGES
Under “fitted relative affinity”, `TTAGCACTGGGGTATCGGTTAGTGCTA` is recorded as -0.0526 z-score.
For `TCATTTCTATGTCTGTTACTGTGCTAG`, “fitted relative affinity” read 2.18 z-score.
`GTTATCCTATATCTGAACCGGTGCTAG`: “fitted relative affinity” 2.12 z-score.
For `GACGGTCTCATTTTCCTGACGTGCTAG`, “fitted relative affinity” read 2.4 z-score.
For `GACGATATCGGCACTGGAGACGTGCTA`, “fitted relative affinity” read -0.163 z-score.
`GACGATATCAGTATCTAGACGTGCTAG`: “fitted relative affinity” 1.03 z-score.
For `GACGAACTGAGTCTCAAGACGTGCTAG`, “fitted relative affinity” read -0.16 z-score.
For `CAATATTAGAGTCTCAACCCGTGCTAG`, “fitted relative affinity” read 0.329 z-score.
Under “fitted relative affinity”, `GCTCATCTGTCATGTTTGTCAGTGCTA` is recorded as 0.53 z-score.
`GACGGTCTCGGAGTGGGGACGTGCTAG` — result for “fitted relative affinity”: 0.042 z-score.
`GACGGACTACTTATCCTGACGTGCTAG`: “fitted relative affinity” 0.136 z-score.
For `TTAGCTCTCCTTCTCCTTTAGTGCTAG`, “fitted relative affinity” read 2.86 z-score.
Under “fitted relative affinity”, `TCATCATTCCAATTCTTACTGTGCTAG` is recorded as 1.13 z-score.
Under “fitted relative affinity”, `GTCGATATCGGGTATCGAGACGTGCTA` is recorded as 0.976 z-score.
`TTAGGACTGGACTATCGGATAGTGCTA`: “fitted relative affinity” -0.166 z-score.
Under “fitted relative affinity”, `GACGATTTCAGTTCCAAGACGTGCTAG` is recorded as 3.26 z-score.
For `TTAGAACTGGGGACAGGATTAGTGCTA`, “fitted relative affinity” read -0.622 z-score.
`GACGGTTTCCACTATCGGGACGTGCTA`: “fitted relative affinity” 3.62 z-score.
`TCAAAAATCTTTGTTGGAACTGTGCTA` — result for “fitted relative affinity”: -0.267 z-score.
